Measured values from different studies.
Compare with care: the assays were run in different laboratories.
Route: oral

| SMILES | host | medium | dose | setting | bioavailability [%] |
| --- | --- | --- | --- | --- | --- |
| C[C@@H](Nc1c(-c2c(F)cc(C#N)cc2F)c(Cl)nc2ncnn12)C(C)(C)C | male CD-1 mouse | plasma | 20 mg/kg |  | 76 |
| COc1ccccc1NC(=O)OC1C(C)C(OC)C=COC2(C)Oc3c(C)c(O)c4c(c3C2=O)C2=NC3(CCN(CC(C)C)CC3)NC2=C(NC(=O)C(C)=CC=CC(C)C(O)C(C)C(O)C1C)C4=O (stereo not shown) | female CD-1 mouse | plasma | 10 mg/kg |  | 22 |
| Fc1cncc(-c2ccc3[nH]c4ncnc(N[C@H]5CC[C@H](N6CCOCC6)CC5)c4c3c2)c1 | CD-1 mouse | plasma | 10 mg/kg |  | 24.2 |
| COC1C=COC2(C)Oc3c(C)c(O)c4c(c3C2=O)C2=NC3(CCN(CC(C)C)CC3)NC2=C(NC(=O)C(C)=CC=CC(C)C(O)C(C)C(O)C(C)C(OC(=O)Nc2cccnn2)C1C)C4=O (stereo not shown) | female CD-1 mouse | plasma | 10 mg/kg |  | 44 |
| Nc1ccc(-c2cc(Cl)c(Cl)c3[nH]c4c(c23)CN(C(=O)CO)CC4)cn1 | C57BL/6 mouse | blood | 20 mg/kg |  | 13.4 |
| CCC1(CC)CC(=O)N(C2CCOc3ccc(C(=O)NC4CC(C)(C)Oc5ccccc54)cc32)C(=N)N1 (stereo not shown) | male C57BL/6 mouse | plasma |  |  | 38 |
| O=S(=O)(N[C@H]1CCO[C@@H](C2c3ccccc3CCc3ccccc32)C1)c1ccc(OC(F)(F)F)cc1 | mouse | plasma | 30 mg/kg |  | 40 |
| Cc1cc(C(=O)N[C@@H](CC(=O)NC(C)(C)C)C(=O)NCCNC(=O)c2cccc(-c3cc[nH]n3)c2)no1 | mouse | plasma |  |  | 0 |
| COC(=O)C1=CNC=C(C(=O)OC)C1c1ccc(F)c(C(F)(F)F)c1 | male C57BL/6 mouse | plasma | 50 mg/kg |  | 48.6 |
| Cn1c2cc([S+](C)[O-])sc2c2cnn(Cc3cccc(N)c3)c(=O)c21 (stereo not shown) | male BALB/c mouse | plasma | 10 mg/kg | single dose | > 100 |
| COC1C(c2ccc(Cl)c(Cc3ccc(OC4CCOC4)cc3)c2)OC(CO)C(O)C1O (stereo not shown) | CD-1 mouse | plasma | 10 mg/kg |  | 91.5 |
| C[C@@H](Nc1nc2c(cnn2C(C)(C)C)c(=O)n1Cc1cccc(F)c1)c1ccc(Cl)cc1 | C57BL/6 mouse | plasma | 5 mg/kg |  | 64.6 |
| Cn1ccc(-c2cc(Cl)c(Cl)c3[nH]c4c(c23)CN(C(=O)CO)CC4)n1 | C57BL/6 mouse | blood | 100 mg/kg |  | 161 |
| COC1C=COC2(C)Oc3c(C)c(O)c4c(c3C2=O)C2=NC3(CCN(CC(C)C)CC3)NC2=C(NC(=O)C(C)=CC=CC(C)C(O)C(C)C(O)C(C)C(OC(=O)Nc2cnccn2)C1C)C4=O (stereo not shown) | female CD-1 mouse | plasma | 10 mg/kg |  | 74 |
| CCn1cc(-c2cc(Cn3ccnc3)cc3c2CCN([C@H](c2cc(OC)ccn2)C2CC2)C3=O)c(C(F)(F)F)n1 | male CD-1 mouse | plasma | 10 mg/kg |  | 42 |
| Nc1nnc(-c2ccccc2O)cc1N1CC2CCC(C1)N2c1ccnc(C#CCCN2CCCCCC2)c1 | mouse | plasma | 10 mg/kg |  | 1 |
